Assay results of several laboratories.
A part holds a random share of what one study measured.
Chain of UniProt P00519 (whole entry, unmodified, looked up): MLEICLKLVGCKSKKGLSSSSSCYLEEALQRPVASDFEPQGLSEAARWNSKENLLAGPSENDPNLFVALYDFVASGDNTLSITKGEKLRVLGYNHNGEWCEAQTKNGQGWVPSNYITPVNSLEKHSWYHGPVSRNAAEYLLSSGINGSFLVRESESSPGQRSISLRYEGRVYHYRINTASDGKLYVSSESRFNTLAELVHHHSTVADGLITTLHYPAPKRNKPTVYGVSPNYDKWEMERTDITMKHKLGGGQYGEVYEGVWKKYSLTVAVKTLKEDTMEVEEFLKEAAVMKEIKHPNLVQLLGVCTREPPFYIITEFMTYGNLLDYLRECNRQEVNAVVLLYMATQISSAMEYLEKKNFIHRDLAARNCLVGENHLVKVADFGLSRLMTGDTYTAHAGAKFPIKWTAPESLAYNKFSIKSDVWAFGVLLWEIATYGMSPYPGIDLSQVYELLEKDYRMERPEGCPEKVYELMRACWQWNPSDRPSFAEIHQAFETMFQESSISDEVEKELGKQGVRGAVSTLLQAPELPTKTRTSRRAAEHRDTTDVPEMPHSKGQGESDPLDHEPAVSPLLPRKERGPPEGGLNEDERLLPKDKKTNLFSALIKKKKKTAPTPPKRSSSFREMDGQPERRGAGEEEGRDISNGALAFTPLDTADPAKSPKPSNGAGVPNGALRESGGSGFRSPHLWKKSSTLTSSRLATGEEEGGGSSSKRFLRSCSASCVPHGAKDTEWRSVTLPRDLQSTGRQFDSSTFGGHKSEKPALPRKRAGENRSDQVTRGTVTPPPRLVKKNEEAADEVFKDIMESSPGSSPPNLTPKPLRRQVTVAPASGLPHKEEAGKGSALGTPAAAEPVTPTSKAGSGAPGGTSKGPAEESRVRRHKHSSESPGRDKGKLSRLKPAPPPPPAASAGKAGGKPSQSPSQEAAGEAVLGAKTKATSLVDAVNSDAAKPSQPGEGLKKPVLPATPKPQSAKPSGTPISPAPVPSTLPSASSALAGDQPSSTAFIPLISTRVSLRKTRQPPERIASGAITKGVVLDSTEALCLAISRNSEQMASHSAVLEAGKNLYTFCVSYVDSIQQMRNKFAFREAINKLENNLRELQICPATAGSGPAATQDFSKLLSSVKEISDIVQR
Chain of UniProt P25098 (whole entry, looked up): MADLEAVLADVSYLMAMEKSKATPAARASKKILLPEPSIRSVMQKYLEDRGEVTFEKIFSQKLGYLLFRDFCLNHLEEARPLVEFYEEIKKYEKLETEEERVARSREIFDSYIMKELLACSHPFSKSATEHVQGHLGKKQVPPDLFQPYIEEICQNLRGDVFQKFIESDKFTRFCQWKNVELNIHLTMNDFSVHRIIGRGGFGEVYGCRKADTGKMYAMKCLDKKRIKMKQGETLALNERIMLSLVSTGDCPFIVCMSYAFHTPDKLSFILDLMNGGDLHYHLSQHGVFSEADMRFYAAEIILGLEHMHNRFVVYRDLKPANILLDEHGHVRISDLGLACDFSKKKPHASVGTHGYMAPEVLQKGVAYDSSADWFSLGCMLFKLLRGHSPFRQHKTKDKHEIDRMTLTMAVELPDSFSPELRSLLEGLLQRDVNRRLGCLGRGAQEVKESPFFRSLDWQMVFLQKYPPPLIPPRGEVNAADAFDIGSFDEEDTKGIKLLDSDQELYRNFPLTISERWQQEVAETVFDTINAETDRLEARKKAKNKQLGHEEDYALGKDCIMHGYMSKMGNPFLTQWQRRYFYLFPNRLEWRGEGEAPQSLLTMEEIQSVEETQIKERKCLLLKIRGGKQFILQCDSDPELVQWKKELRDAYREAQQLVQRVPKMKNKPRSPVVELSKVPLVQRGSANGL
Chain of UniProt Q8NI60 (whole entry, looked up): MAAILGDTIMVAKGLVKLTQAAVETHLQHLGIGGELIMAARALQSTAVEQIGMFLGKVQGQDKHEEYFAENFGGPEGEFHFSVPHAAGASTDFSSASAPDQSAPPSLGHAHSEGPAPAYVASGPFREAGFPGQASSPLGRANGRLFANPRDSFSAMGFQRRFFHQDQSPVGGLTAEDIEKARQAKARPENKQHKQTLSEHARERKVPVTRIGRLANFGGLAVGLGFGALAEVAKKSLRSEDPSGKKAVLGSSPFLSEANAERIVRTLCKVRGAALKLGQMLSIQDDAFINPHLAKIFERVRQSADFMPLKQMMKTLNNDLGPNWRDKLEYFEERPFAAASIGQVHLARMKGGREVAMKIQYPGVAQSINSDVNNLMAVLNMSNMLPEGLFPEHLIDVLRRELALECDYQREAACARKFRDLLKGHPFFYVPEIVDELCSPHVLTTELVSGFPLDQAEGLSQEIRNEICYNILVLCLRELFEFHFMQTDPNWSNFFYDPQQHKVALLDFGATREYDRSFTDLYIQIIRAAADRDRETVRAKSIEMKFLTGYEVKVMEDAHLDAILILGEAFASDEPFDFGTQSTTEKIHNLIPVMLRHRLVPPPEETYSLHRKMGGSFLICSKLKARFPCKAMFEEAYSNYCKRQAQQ
Chain of UniProt Q05397 (whole entry, looked up): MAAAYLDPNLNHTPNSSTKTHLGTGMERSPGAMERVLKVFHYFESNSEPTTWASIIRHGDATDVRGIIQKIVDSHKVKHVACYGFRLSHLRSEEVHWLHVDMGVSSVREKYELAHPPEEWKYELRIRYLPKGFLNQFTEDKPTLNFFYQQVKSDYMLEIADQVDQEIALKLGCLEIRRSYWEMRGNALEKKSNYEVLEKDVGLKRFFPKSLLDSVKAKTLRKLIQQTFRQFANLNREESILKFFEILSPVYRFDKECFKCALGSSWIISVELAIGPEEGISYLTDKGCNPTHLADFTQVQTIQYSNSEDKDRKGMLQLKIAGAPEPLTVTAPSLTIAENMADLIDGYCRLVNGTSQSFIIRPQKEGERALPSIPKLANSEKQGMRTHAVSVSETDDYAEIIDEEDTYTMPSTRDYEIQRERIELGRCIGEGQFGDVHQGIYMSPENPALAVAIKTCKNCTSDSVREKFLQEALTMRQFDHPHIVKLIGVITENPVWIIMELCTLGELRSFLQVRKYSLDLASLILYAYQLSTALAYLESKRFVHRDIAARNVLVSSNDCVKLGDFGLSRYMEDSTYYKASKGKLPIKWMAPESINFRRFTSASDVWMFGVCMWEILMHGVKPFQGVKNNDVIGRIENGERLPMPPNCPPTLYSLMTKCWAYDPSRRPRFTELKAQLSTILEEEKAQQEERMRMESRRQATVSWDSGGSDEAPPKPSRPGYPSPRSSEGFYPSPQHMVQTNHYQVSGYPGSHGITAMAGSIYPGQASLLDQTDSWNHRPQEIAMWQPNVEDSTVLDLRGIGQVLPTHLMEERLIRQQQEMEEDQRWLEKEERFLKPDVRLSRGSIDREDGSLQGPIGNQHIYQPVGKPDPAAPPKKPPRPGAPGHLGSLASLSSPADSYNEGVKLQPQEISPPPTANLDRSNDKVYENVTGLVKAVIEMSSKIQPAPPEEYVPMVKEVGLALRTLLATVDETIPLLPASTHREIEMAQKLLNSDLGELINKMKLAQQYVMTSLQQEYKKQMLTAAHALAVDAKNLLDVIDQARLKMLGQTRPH
Chain of UniProt P41743 (whole entry, looked up): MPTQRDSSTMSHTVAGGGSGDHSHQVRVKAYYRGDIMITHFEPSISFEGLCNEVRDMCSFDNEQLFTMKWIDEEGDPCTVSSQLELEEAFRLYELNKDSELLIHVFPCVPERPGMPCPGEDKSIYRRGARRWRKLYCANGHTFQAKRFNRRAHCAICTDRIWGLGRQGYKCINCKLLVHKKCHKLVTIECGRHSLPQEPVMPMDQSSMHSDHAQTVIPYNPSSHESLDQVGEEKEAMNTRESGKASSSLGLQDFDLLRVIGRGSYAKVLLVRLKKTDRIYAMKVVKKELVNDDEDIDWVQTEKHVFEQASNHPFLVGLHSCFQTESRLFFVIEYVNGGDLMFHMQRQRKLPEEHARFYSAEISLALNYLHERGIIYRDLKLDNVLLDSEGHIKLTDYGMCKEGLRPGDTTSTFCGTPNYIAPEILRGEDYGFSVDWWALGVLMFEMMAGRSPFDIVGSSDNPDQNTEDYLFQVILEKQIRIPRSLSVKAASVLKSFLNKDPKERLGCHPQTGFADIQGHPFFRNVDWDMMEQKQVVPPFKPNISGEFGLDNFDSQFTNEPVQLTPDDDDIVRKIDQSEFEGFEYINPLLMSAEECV
Chain of UniProt O75716 (whole entry, looked up): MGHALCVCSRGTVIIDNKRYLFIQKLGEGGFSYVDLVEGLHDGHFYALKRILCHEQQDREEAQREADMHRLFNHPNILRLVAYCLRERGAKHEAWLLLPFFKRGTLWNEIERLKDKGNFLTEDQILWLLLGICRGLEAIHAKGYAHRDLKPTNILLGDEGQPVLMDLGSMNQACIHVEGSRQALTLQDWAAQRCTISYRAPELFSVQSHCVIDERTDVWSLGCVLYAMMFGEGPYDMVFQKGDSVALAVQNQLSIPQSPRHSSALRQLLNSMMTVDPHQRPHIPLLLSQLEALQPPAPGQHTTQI

Block 1 — effect on: enzyme activity; action: inhibitor; tested at: 0.5 µM; baseline: control; endpoint: remaining activity
Target: Calcium/calmodulin-dependent protein kinase type 1G (CAMK1G, Homo sapiens, UniProt Q96NX5)
Chain of UniProt Q96NX5 (whole entry, looked up): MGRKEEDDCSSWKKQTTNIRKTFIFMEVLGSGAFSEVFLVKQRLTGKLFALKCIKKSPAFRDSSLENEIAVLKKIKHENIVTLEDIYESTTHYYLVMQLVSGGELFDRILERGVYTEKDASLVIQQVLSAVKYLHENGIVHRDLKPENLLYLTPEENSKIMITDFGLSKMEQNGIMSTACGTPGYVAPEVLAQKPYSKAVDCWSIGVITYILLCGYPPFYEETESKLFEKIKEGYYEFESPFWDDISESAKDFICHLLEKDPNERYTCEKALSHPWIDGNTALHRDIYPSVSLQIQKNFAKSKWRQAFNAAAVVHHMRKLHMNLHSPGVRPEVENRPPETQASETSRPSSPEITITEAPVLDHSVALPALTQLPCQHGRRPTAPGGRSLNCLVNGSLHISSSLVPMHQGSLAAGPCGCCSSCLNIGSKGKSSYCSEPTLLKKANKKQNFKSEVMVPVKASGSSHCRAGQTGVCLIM
N#CC(C#N)=C(N)/C(C#N)=C/c1ccc(O)cc1: 104%
COc1ccc(CNC(=O)Nc2ncc([N+](=O)[O-])s2)cc1: 99.6%
O=C(O)c1ccc2c3c1cccc3c(=O)n1c3ccccc3nc21: 99%
O=c1c2ccccc2[nH]c(=S)n1CCN1CCC(=C(c2ccc(F)cc2)c2ccc(F)cc2)CC1: 104%
Cn1c2ccccc2c2c3c(c4c5ccccc5n(CCC#N)c4c21)CNC3=O: 101%
NCCNc1ncc(C(N)=O)c(Nc2cccc(C(F)(F)F)c2)n1: 74%
COc1cc2nccc(Oc3ccc(NC(=S)NC(=O)c4ccccc4C)cc3)c2cc1OC: 99.5%
Nc1[nH]nc2nc3ccccc3nc12: 97.9%
O=S(=O)(c1cccc2cnccc12)N1CCCNCC1: 101%
Cc1nc(-c2ccccc2)c(-c2ccncc2)o1: 92.8%
Nc1ccc2ncnc(NCCc3ccc(Oc4ccccc4)cc3)c2c1: 102%
O=C(CCCc1ccc(-c2ccccc2F)cc1)Nc1ccc(O)cc1: 96.8%
CNC(=O)c1cc(Oc2ccc(NC(=O)Nc3ccc(Cl)c(C(F)(F)F)c3)cc2)ccn1: 107%
O=C1NC(=O)C(c2cn(CCCn3ccnc3)c3ccccc23)=C1Nc1ccccc1: 84.6%
OCC(O)CCON=C1C(c2c(O)[nH]c3ccccc23)=Nc2ccccc21 (centres unmarked): 102%

Block 2 — method: competitive binding panel; tested at: 1 µM; baseline: vehicle; endpoint: remaining binding
SMILES: CN1CCN(C(=O)c2ccc(NC(=O)Nc3ccc(N(C)c4ccnc(Nc5ccc(CS(C)(=O)=O)cc5)n4)cc3)cc2)CC1
PLK2 (Homo sapiens, UniProt Q9NYY3): 100%
ABL1 (Homo sapiens, UniProt P00519, E255K): 38%
STK25 (Homo sapiens, UniProt O00506); item: YSK1: 83%
STK16 (Homo sapiens, UniProt O75716): 15%
WNK4 (Homo sapiens, UniProt Q96J92): 100%
COQ8A (Homo sapiens, UniProt Q8NI60); item: ADCK3: 100%
CAMK1G (Homo sapiens, UniProt Q96NX5): 88%

Block 3 — cell line: 451Lu; endpoint: IC50
COCCCC/C(=N\OCCN)c1ccc(C(F)(F)F)cc1: 50.4 µM
CNCCC=C1c2ccccc2CCc2ccccc21: 48 µM
CN(C)CCCN1c2ccccc2CCc2ccccc21: 79 µM
CN(C)CCCN1c2ccccc2Sc2ccc(Cl)cc21: 23.2 µM
CN(C)CCC=C1c2ccccc2CCc2ccccc21: 70.9 µM
Clc1ccccc1CNCC1CCC(CNCc2ccccc2Cl)CC1 (centres unmarked): 49.4 µM
CN(C)CC/C=C1/c2ccccc2Sc2ccc(Cl)cc21: 34.8 µM
CCCCCCCCNC(C)C(O)c1ccc(SC(C)C)cc1 (centres unmarked): 14.8 µM
CN1CCc2c(c3ccccc3n2Cc2ccccc2)C1: > 120 µM
OCCN1CCN(CCCN2c3ccccc3Sc3ccc(Cl)cc32)CC1: 17.9 µM

Block 4 — method: competition with immobilised ligand; tested at: 0.1 µM; endpoint: remaining binding
Compound: CS(=O)(=O)N1CCCC(NC(=O)[C@H](CCC2CCCCC2)NC(=O)c2ccc(CNc3ncnc4c3nnn4-c3ccccc3)cc2)C1 (some centres unmarked)
PRKCI (Homo sapiens, UniProt P41743); cell-free assay: 100%
AKT3 (Homo sapiens, UniProt Q9Y243); cell-free assay: 86%
GRK2 (Homo sapiens, UniProt P25098); cell-free assay: 72%
GAK (Homo sapiens, UniProt O14976); cell-free assay: 95%
MAPK1 (Homo sapiens, UniProt P28482); cell-free assay: 90%
EPHA8 (Homo sapiens, UniProt P29322); cell-free assay: 100%
Tyrosine-protein kinase ABL1, phosphorylated (ABL1, Homo sapiens, UniProt P00519, E255K); binding: 87%
Tyrosine-protein kinase JAK1, JH1 (JAK1, Homo sapiens, UniProt P23458); cell-free assay: 100%
PTK2 (Homo sapiens, UniProt Q05397); cell-free assay: 100%

Excerpt of the above (block 1):
Cc1nc(-c2ccccc2)c(-c2ccncc2)o1: 92.8%
O=C1NC(=O)C(c2cn(CCCn3ccnc3)c3ccccc23)=C1Nc1ccccc1: 84.6%
OCC(O)CCON=C1C(c2c(O)[nH]c3ccccc23)=Nc2ccccc21 (centres unmarked): 102%
